Published values of several laboratories.
Numbered parts are unrelated; each lists some results of a single study. Positions count from the first letter of the parent shown.

Series 1 — technique: protein-binding microarray; form: double-stranded DNA, one strand shown; sample: in vitro; tested at: 2540 nM top; setting: 60-bp whole probe; added: salmon DNA 0.4 mg/ml; reference: random background probes; reading: higher = stronger binding; all sequences stand within: GCCTAGCAC … GTCTTGATTCGCTTGACGCTGCTG
Target: Interferon regulatory factor 3, full length, phosphomimetic (IRF3, Homo sapiens, UniProt Q14653, residues 1-427, S386D/S396D/S398D/S402D/T404D/S405D)
Construct (chain): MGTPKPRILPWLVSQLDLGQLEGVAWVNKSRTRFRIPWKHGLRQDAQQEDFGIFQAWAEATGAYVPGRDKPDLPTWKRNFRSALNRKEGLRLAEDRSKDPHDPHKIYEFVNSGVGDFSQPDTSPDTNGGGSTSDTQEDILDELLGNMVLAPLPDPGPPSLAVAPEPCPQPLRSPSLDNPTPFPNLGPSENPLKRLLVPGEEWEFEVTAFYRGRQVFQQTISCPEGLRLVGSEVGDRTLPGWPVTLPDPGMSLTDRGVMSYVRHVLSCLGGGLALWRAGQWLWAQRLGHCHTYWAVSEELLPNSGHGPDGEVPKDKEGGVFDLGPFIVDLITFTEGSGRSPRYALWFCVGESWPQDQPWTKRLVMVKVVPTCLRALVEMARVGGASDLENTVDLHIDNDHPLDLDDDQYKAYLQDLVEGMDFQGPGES
Sequence | fitted relative affinity
GACGGGCTGCTTATCCTGACGTGCTAG | -0.744 z-score
GCACGGCTCGTTATCCTATAGTGCTAG | 0.258 z-score
GACGAACTGGCGACTGGAGACGTGCTA | -0.461 z-score
CTAAAACTCTTTATTTAAGCGTGCTAG | 0.468 z-score
TTAGATCTCAGTCTCGGTTAGTGCTAG | 0.773 z-score
ATGTGTTTACATATGTTTTTGTGCTAG | 0.494 z-score
GACGGTATAGACACTGGGGACGTGCTA | -0.52 z-score
TCATTTTTATTTATAAAACTGTGCTAG | 1.98 z-score
GACGATTTCGGGTATTGAGACGTGCTA | 1.66 z-score
GACGATATCGGGACTCGAGACGTGCTA | 0.115 z-score

Series 2 — technique: RNA Bind-n-Seq; form: RNA; sample: in vitro; tested at: not given; setting: RNA with constant flanks, ends assumed; reference: input RNA pool; reading: higher = stronger binding
Target: RING finger protein unkempt homolog, zinc fingers 1-6, GST-SBP tag (UNK, Homo sapiens, UniProt Q9C0B0, residues 30-357)
All sequences stand within: GGGAGUUCUACAGUCCGACGAUC … CAACAGAGGAUUGAGCAUCA
Target sequence (chain): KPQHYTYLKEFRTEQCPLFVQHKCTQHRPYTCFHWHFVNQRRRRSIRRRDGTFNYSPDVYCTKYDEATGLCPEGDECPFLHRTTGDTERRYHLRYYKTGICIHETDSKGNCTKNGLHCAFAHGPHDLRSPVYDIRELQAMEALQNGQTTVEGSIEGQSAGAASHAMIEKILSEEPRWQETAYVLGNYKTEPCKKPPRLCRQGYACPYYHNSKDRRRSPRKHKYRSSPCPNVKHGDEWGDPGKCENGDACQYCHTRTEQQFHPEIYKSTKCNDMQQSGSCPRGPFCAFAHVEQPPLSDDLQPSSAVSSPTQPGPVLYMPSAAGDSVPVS
Sequence | bound/input enrichment
CGUGAAACCUAUUCUUAGCUCACAGGCCAUGGAGAAGCUGGUGGGGACCAGACCCAGCUCCUCCGCUGGCUGGGCUGGGGAGGGGGUAGUGACAGUGGCAGCUGCUACUCACUGCUCAGU | 0.0643 ratio
UUUUCCUGGAUUAUUGUUCCUUUAUAUAUAAAGGUUUGAUCAUCCAGUGCCUUAAUUGGCUUCCGCCGUGUAGGUCUUACCAUUGUCACAGUCAAUUGAUUUGACUUCAGAGCGUAAUGG | 0.163 ratio
UAUUUAUAUUUAUUGACUCUUGAGUUGUUUUUGUAUAUUGGUUUUAUGAUGACGUUCGAGCCGUUCUGUAUUUGAAAGUGCCUUUGCAGCUCAGAACCACAGCAACUAUCACAAAUGACU | 0.588 ratio
GCUCUGCCCAGUAUCCCUCACUUACCAAGAGGAGAAUGGAGGGAUAAUGGACUCACCCCCGCCCCGGGCUUCGACAUUGCAUGCUGGGAUCCAGCUCCUACCCUUCCUGCACUCCCUUCC | 0.202 ratio
GUGACUAACUUGUUGCAGUUGCCUCAGUACUUUGAUUUGGAAAUAUAUACCACUGGACGAUCCGAAAAGCAUUUGGAUGCCUUAUUGCGACAGAUCCGGAAUAUUGUAGAGAAGCACACA | 0.307 ratio
AACGGCAGGAAGACCCUUACUACUGUCCAAGGGAUCGCUGAUGAUUACGAUAAAAAGAAACCCGUGAAGGCGUUUAAGAAAAAGUUUGCCUGCAAUGGUACUGUAAUUGAGCAUCCGGAA | 0.141 ratio

Series 3 — target: CCNB2, cyclin fold, Cln2 fusion (human); technique: yeast growth competition, sequencing; sample: yeast; setting: weak parent motif; reference: not given; reading: higher = stronger binding
Parent: RBL1 docking peptide (human); GSAKRRLFGEDPP; partner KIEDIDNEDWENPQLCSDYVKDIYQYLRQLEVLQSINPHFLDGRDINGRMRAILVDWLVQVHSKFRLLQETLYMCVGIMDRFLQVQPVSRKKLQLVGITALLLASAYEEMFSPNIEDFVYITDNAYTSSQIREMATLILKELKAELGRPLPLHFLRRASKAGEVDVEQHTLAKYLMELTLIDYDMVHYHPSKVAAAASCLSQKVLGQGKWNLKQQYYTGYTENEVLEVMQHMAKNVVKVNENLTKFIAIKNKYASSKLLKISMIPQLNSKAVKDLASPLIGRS
Variant | normalised enrichment score
GSAKRRLFGEDYP [P12Y] | 0.354
GSAKRRLFEEDPP [G9E] | -0.0298
YSAKRRLFGEDPP [G1Y] | 1.31
GSAKRRLFGEVPP [D11V] | 0.279
FSAKRRLFGEDPP [G1F] | 0.909
GSAKMRLFGEDPP [R5M] | -0.397
GSALRRLFGEDPP [K4L] | -0.365
GSAWRRLFGEDPP [K4W] | -0.0229
GSAKRRLFGEWPP [D11W] | 0.658
GSAKRRLFVEDPP [G9V] | 0.574
GSAKRGLFGEDPP [R6G] | -0.131

Single results of other studies
Molecule | target | test | system | conditions | scale | measurement | result
PhoQ, residues 284 288 289 292 302 303 SNGLAW | PhoP, residues 12 14 15 18 19 LHTVM (Escherichia coli, UniProt P23836) | Sort-seq, item: YFP reporter | E. coli | PhoQ-PhoP variant library, added: 10 µM Mg2+ | reference: high Mg2+ state, higher = stronger signaling | fold induction | 13.2

Repeated from above (series 3):
Variant | normalised enrichment score
GSAKRRLFGEVPP [D11V] | 0.279
FSAKRRLFGEDPP [G1F] | 0.909
GSAKMRLFGEDPP [R5M] | -0.397
GSALRRLFGEDPP [K4L] | -0.365
